Experimental data collected from several papers.
Lines come from different studies, so protocols differ. “And” joins repeats or separate records; there may be more than shown.

Structure (SMILES) | target or system | test | test system | conditions | scale | quantity | result
CC(=O)OCC(=O)[C@@]12N=C(C)O[C@@H]1C[C@H]1[C@@H]3CCC4=CC(=O)C=C[C@]4(C)[C@H]3[C@@H](O)C[C@@]12C | THP-1 | pyroptotic LDH release |  | 2 µM, 40 min, added: LPS then nigericin |  | inhibition | 50.2%
c1ccc(-c2c(-c3ccccn3)nc3n2CCC3)cc1 | Leishmania infantum |  | macrophages, MHOM/MA(BE)/67/ITMAP263, amastigote |  |  | IC50 | 1.83 µM and 2.01 µM
Cn1cc(-c2cc3c(N4CCN(c5ncc([C@@](C)(N)c6ccc(F)cc6)cn5)CC4)ncnn3c2)cn1 | HEK293T ATF4-FLuc reporter | ATF4 reporter gene, activator, luciferase reporter |  |  |  | EC50 | 9.19 µM
CCOC(=O)c1ccccc1O | THP-1 | pyroptotic LDH release |  | 2 µM, 40 min, added: LPS then nigericin |  | inhibition | -16.1%
Fc1ccc(Nc2c(-c3ccccn3)nc3cnccn23)cc1 | Leishmania infantum |  | macrophages, MHOM/MA(BE)/67/ITMAP263, amastigote |  |  | IC50 | > 64 µM
Nc1ncc(-c2ccccc2)nc1Nc1ccc2[nH]ccc2c1 | HEK293T ATF4-FLuc reporter | ATF4 reporter gene, activator, luciferase reporter |  |  |  | EC50 | 5.64 µM
O=C(O)CNC(=O)Cc1ccccc1 |  |  | ventricular cardiomyocytes, C57BL/6 mouse | dose not given, 0.464 s |  | sarcomere length | 1.7 µm
Cn1cc(-c2ccc(-c3cncc(Cl)c3N3CCC4(CCNC4=O)CC3)cc2)cn1 | COLO 205 | gene expression, microarray, refers to: SKP2 mRNA |  | concentration not given, 2 h | relative to: untreated cells | log2 fold change | -2.21
COc1cnc2cccc(N3CCc4c(cc(Cn5ccnc5C)cc4-c4cn(C)nc4C(F)(F)F)C3=O)c2c1 | OCUM1 | cell growth, inhibitor |  | 120 h |  | EC50 | 0.685 µM
CCN1CCN(Cc2ccc(Nc3ncc(F)c(-c4cc(F)c5nc6n(c5c4)[C@H](C)CCC6)n3)nc2)CC1 |  |  | human advanced solid tumours | 100 mg, phase Ia monotherapy RECIST 1.1 |  | non-CR/non-PD | 0%
CCn1cc(-c2cc(Cn3ccnc3)cc3c2CCN([C@H](c2cc(OC)ccn2)C2CC2)C3=O)c(C(F)(F)F)n1 | COLO792 | cell growth |  | 120 h |  | EC50 | 12.9 µM
CN[C@@H](C)C(=O)N[C@H](C(=O)N1CCC[C@H]1c1nc(C(=O)c2ccc(F)cc2)cs1)C1CCCCC1 | HEK293T ATF4-FLuc reporter | ATF4 reporter gene, activator, luciferase reporter |  |  |  | EC50 | > 9.96 µM
CCC[C@@H]1C[C@@H](C(=O)N[C@@H]([C@H]2O[C@H](SC)[C@H](O)[C@@H](O)[C@H]2O)[C@H](C)Cl)N(C)C1 | THP-1 | pyroptotic LDH release |  | 2 µM, 40 min, added: LPS then nigericin |  | inhibition | 16.6%
O=C(/C=C/C=C/C=C/C1CCCCC1)NC1=C[C@@](O)(/C=C/C=C/C=C/C(=O)NC2=C(O)CCC2=O)[C@@H]2O[C@@H]2C1=O | KYSE-520 | cell growth, CellTiter-Glo |  | 78 h |  | GI50 | 15.5 µM
Cc1nc2cc(-c3c(-c4ccccn4)nc4n3CCC4)ccc2s1 | Leishmania infantum |  | macrophages, MHOM/MA(BE)/67/ITMAP263, amastigote |  |  | IC50 | 6.35 µM and 1.74 µM
OC(CCN1CCCCC1)(c1ccccc1)C1CC2C=CC1C2 (stereo not drawn) |  | resting-state EEG | healthy elderly humans | oral, 2 mg, eyes open, LS mean | relative to: baseline | change in EEG Alpha2-power Pz-O1 | 20.7%
Fc1ccc(Nc2c(-c3ccccn3)nc3ncccn23)cc1 | Leishmania infantum |  | macrophages, MHOM/MA(BE)/67/ITMAP263, amastigote |  |  | IC50 | 33.2 µM and > 64 µM
CCn1cc(-c2cc(Cn3ccoc3=N)cc3c2CCN([C@@H](C)c2cc(OC)ccn2)C3=O)c(C(F)(F)F)n1 | NOMO-1 | cell growth, inhibitor |  | 120 h |  | EC50 | 0.156 µM
COc1ccc(-c2nc3ccccn3c2Nc2ccc(F)cc2)nc1 | Leishmania infantum |  | macrophages, MHOM/MA(BE)/67/ITMAP263, amastigote |  |  | IC50 | 5.66 µM and 5.06 µM
COc1cccc(Nc2nc(NCC3CCCO3)c3ccccc3n2)c1.Cl (stereo not drawn) | Renilla luciferase reporter mRNA | in vitro translation, inhibitor | Trypanosoma cruzi translation extract | 40 µM |  | inhibition | 74.5%
Nc1ccncc1N | THP-1 | pyroptotic LDH release |  | 2 µM, 40 min, added: LPS then nigericin |  | inhibition | 7.32%
Nc1ccc(-c2c(-c3ccccn3)nc3n2CCC3)cc1 | Leishmania infantum |  | macrophages, MHOM/MA(BE)/67/ITMAP263, amastigote |  |  | IC50 | 1.36 µM and 2.26 µM
CN1CCN2c3c(cccc31)[C@@H]1CN(CCCC(=O)c3ccc(F)cc3)CC[C@@H]12 | THP-1 | pyroptotic LDH release |  | 2 µM, 40 min, added: LPS then nigericin |  | inhibition | -12%
CC(C)n1ncc2c(C(=O)NCC3(C)CNC3)cc(C3CC3)nc21 | Enterovirus D68 | cytopathic effect | RD, US/MO/14-18949 | 1500 nM |  | cell protection | 102% and 95.9%
O=C(O)c1cccc(F)c1 | THP-1 | pyroptotic LDH release |  | 2 µM, 40 min, added: LPS then nigericin |  | inhibition | -4.62%
c1coc(-c2n[nH]cc2-c2ccnc3ccccc23)c1 | IRE1 (Candida albicans) | kinase binding, MIB/MS competition | Candida albicans lysate | 1 µM | relative to: DMSO | log2 fold change | -0.21
FC(F)(F)Oc1ccc(-c2c(-c3ccccn3)nc3n2CCC3)cc1 | Leishmania infantum |  | macrophages, MHOM/MA(BE)/67/ITMAP263, amastigote |  |  | IC50 | 1.29 µM and 0.35 µM
Nc1cccc(C(=O)O)c1 | THP-1 | pyroptotic LDH release |  | 2 µM, 40 min, added: LPS then nigericin |  | inhibition | 6.96%
Fc1ccc(Nc2c(-c3ccccn3)nc3ccc(-c4cnoc4)cn23)cc1 | Leishmania infantum |  | macrophages, MHOM/MA(BE)/67/ITMAP263, amastigote |  |  | IC50 | 12.7 µM and 50.8 µM
CCC(=O)O[C@]1(C(=O)CCl)[C@@H](C)C[C@H]2[C@@H]3CCC4=CC(=O)C=C[C@]4(C)[C@@]3(F)[C@@H](O)C[C@@]21C | THP-1 | pyroptotic LDH release |  | 2 µM, 40 min, added: LPS then nigericin |  | inhibition | 23.3%

A few entries again:
Structure (SMILES) | target or system | test | test system | conditions | scale | quantity | result
c1ccc(-c2c(-c3ccccn3)nc3n2CCC3)cc1 | Leishmania infantum |  | macrophages, MHOM/MA(BE)/67/ITMAP263, amastigote |  |  | IC50 | 1.83 µM and 2.01 µM
Cn1cc(-c2cc3c(N4CCN(c5ncc([C@@](C)(N)c6ccc(F)cc6)cn5)CC4)ncnn3c2)cn1 | HEK293T ATF4-FLuc reporter | ATF4 reporter gene, activator, luciferase reporter |  |  |  | EC50 | 9.19 µM
CCOC(=O)c1ccccc1O | THP-1 | pyroptotic LDH release |  | 2 µM, 40 min, added: LPS then nigericin |  | inhibition | -16.1%
Fc1ccc(Nc2c(-c3ccccn3)nc3cnccn23)cc1 | Leishmania infantum |  | macrophages, MHOM/MA(BE)/67/ITMAP263, amastigote |  |  | IC50 | > 64 µM
